# Measurements from different studies.
# A part holds a random share of what one study measured. Positions count from the first letter of the parent shown.

# Series 1
# Target: Ras GTPase-activating protein-binding protein 1, full length (G3BP1, Homo sapiens, UniProt Q13283)
# UniProt Q13283, sequence (whole entry, looked up): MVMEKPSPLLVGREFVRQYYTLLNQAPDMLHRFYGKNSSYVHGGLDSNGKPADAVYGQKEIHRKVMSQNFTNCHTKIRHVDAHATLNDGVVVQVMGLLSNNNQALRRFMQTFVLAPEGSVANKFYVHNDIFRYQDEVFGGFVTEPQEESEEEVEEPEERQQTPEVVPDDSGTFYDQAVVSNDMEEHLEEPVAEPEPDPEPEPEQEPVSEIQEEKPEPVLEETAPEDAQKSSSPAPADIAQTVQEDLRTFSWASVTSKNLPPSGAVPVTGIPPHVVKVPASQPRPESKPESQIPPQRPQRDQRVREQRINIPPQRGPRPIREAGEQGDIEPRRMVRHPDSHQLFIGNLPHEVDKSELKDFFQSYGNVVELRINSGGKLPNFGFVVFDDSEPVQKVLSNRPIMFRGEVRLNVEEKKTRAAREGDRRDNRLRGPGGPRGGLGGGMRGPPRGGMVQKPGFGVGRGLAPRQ
# Technique: RNA Bind-n-Seq
# Form: RNA
# Medium: in vitro
# Concentration: 200 nM
# Setting: whole 134-nt RNA, ends assumed
# Together with: 150 mM KCl
# Relative to: input library
# Direction: higher = stronger binding
# All sequences stand within: GGGAGUUCUACAGUCCGACGAUC … UGGAAUUCUCGGGUGUCAAGG
Strand,log2 enrichment
UGGGAGGUGGAUUUUGUUUAUUUUUUUAGCUCAUUUCCAGGGGUGGGAAUUUUUUUUCAAUAUGUGUCAUGAAUAAAGUUGUUUUUGAAA,0.0891
CAAGUCCUGUGCUACACAUCGUAUGUACCGAAUCGGGAAAAAGGGAGGGAAAGGGAAAGUAUUAUGUUACGCCGUUCGGAUCUGCACUUC,0.643
UUAAAACAUGGCAACUUGUAAUUGUUUUCUUUCUUAGGAACAUCAUUCAUGGCAGUGAUUCAGUAAAAAGUGCUGAAAAAGAAAUCAGCC,0.5
CCUGUGCUACACAUCGUAUGUACCGAAUCGGGGAAAAAAAGGGGAAAGGGGAAAAAGGGGAAAGUAUUAUGUUACGCCGUUCGGAUCUGC,0.142
ACCAUGCAGGUGGGCAUCGUUGGGAAGUGGGGCAAGGGGGGGAUAGGGAGGGGGGUAACACUUUGGGAACAGGUGGUCCCAGGUCGUUUC,0.832
UGGCCCUGGUGGCAUGCGGGGAGGAUGAGGUGGCCUCAUGGAUCGUGGUGGUCCCGGUGGAAUGUUCAGAGGUGGCCGUGGUGGAGACAG,0.245
UAACUUUAGAGGAGGAUCUGAUGGAUAUGGCAUUGGACGUGGAUUUGGGGAUGGCUAUAAUGGGUAUGGAGGAGGACCUGGAGGUGGCAA,0.423
UCAAGUCCUGUGCUACACAUCGUAUGUACCGAAUCGGGUGGGAAAAAGGGUGGGAAAGUAUUAUGUUACGCCGUUCGGAUCUGCACUUCC,0.779
CAAGUCCUGUGCUACACAUCGUAUGUACCGAAUCGGGAGGGUGGGUUUUUUUGGGAAAGUAUUAUGUUACGCCGUUCGGAUCUGCACUUC,0.445
UGGCCCUGGUGGCCUGCGGGGAGGAAGAGGUGGCCUCAUGGAUCGUGGUGGUCCCGGUGGAAUGUUCAGAGGUGGCCGUGGUGGAGACAG,0.135
CCUCAAGUCCUGUGCUACACAUCGUAUGUACCGAAUCGGAAGGAAGGAAGGGGAAAGUAUUAUGUUACGCCGUUCGGAUCUGCACUUCCA,-0.331
AAGUCCUGUGCUACACAUCGUAUGUACCGAAUCGGGUUUUUGGGUUUUUGGGAGGGAAAGUAUUAUGUUACGCCGUUCGGAUCUGCACUU,-0.0552
GCAGGAAGUAAAAACAAAUGGAAAUGCUUCGGAUAGUGGCAGCGGUGGGGGUUGCUAAGGAAAGGGUGGGAUGGGAGUGGGUAAAGAGUU,1.05
CAAGUCCUGUGCUACACAUCGUAUGUACCGAAUCGGGAAAGGGGAAAGGGGAAAGGAAAGUAUUAUGUUACGCCGUUCGGAUCUGCACUU,-0.153

# Series 2
# Target: RNA binding protein fox-1 homolog 2, RRM domain, GST-SBP tag (RBFOX2, Homo sapiens, UniProt O43251-10, residues 100-194)
# Technique: RNA Bind-n-Seq
# Form: RNA
# Medium: in vitro
# Concentration: 365 nM
# Setting: natural RNA segment, single round, ends assumed
# Relative to: no-protein control
# Direction: higher = stronger binding
# All sequences stand within: GGGAGUUCUACAGUCCGACGAUC … UGGAAUUCUCGGGUGCCAA
# Construct (chain): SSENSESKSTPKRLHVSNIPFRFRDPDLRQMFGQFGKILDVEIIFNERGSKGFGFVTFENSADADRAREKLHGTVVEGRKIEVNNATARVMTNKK
Strand,RBNS enrichment (R)
CAGUUGAGAAACACUAAGGUUAUGGUGAAUAAAACCAUAGGGAGCUUCUUCCCCCCAACCCCUGGCUAUUUUAUAUUAAUGGGGAGAGGGGAUUUUUAAAUGUCAUAAAU,0.371
CAGCCAGGCUGGGGAGCAGAGCAACCAGCACAGCAUGGCUGCUGCCCUUUUAUUUAUUGGACCAGAAACUCGCAUAUCACUUCCAGAGGAACAGGCCUCAGGAAUAUUUC,0.973
UGACUCCCUAAGUGUACAAGUUGGGAAUAGUACAGGGCCAAGUUCAAGUCGCAUAUGCUGUACUGUUCCUCCUGCAAAUGUGGGGAAAGAAGAGGGAGAUACUAGAGGAA,1.92
GCUCUCUUCUUAUGGAUACCUGCAUUUAACUUGUGGACUAUGUAAACACAAUAUAUAUCAAUAUCUAUAUAUCUAUAUAUCGAUCUAUAUAAACUACUAGCUUUUCCUUU,0.452
CUCUUGCUCUGAGCUACAAUCAUGGCUUCUCAUGUUACUUACCAAGUGAGAGUUUUGGUUAGUAAUCACAGCUGUAAAAUUGAUUUACACUUGUUAAACAUAUUGCCCCU,0.334
AAACAUAAGUUUUAUUUAAAAAAAAAAAAAGAAAGAAAAAAUAGUAAAUUCCCAGAAAUUCAGUGUUUAGACGAGGGAAUUUAAUUCCUAUUUUGUCCAUGUUGGUGAUG,1.17
UAUAUGUAUAUUAUAUGUAUAUGUACACAUAUAUAUUCUAUUAUUAGGCAUACAAGUGGCUCCUGUUCCACAAUACUAACUACUAUAUUUCUACAUUGUGACUUGUUUUA,0.428
GCUGGUCCCUAGGUUAGCGGGUUCCCAGCCCCCCUAAUCAGAGACUGAAGGACAAUUGACUUUUAUUUUUGUAUUUAAUUGACAUGAAUGUAAAGGGGACAGCUCAGGGU,0.818
ACAGAUUUUGUGUUCUUUGGCCCUUCAAAUACUGGUGUUACAUUGUUGCUGCAGAUAAAUGAUGAUUGUCGUGGGAUAUCUGGAUCACUGAGCUCUGUGCUUUCAUUCCU,0.274
ACUUAUCCCCUACAAUAUUCUCCCACUCCAUACUUCUCCUUCUACCCCACCAUGUGCUCCCGUGCACUCCUCAGAUGGUCAGAGGGGUAACCCAAGUCCUUAGAGAAUUU,0.705
UCCCCUGACCCAGACCUAGAACCUGGAGAAGCCAAUAAAGACCUACAGGAUGCAACUAUUCCCAAUCCUUUCCAGAAUGUCACUCACUCCCUUGGGCUGUUGUGGGAAAA,0.898
UUCCCAACUGUUGGCUAGAUAAUCAUCUGAGGCUAUCAUUAUAGUGCUGAUGUCCAAGACUUAACCAGAAGGGAUCUGGGAGGGCCUAGAGGUGGGCUCAGAAUUCUAGU,0.336

# Series 3
# Target: Centromere-binding protein 1, full length, N-terminal tag (CBF1, Saccharomyces cerevisiae, UniProt P17106, residues 1-351)
# UniProt P17106, sequence (whole entry, looked up): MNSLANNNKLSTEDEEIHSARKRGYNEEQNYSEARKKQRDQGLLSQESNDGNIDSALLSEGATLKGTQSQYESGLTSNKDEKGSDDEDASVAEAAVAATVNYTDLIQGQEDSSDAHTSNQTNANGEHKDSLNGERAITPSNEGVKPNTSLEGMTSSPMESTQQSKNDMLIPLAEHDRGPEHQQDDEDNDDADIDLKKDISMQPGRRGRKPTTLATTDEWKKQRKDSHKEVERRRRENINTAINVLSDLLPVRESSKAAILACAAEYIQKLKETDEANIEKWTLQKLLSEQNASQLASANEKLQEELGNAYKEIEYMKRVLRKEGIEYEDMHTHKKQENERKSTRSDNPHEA
# Technique: protein-binding microarray
# Form: double-stranded DNA, one strand shown
# Medium: in vitro
# Concentration: 0.8 µM
# Setting: whole 60-bp probe, no competitor
# Direction: higher = stronger binding
# All sequences stand within: … GTCTTGATTCGCTTGACGCTGCTG
Strand,fluorescence intensity
GAATTATTAAGTCATCCGCACGTGGAACTCACATAG,2240 a.u.
CTACAGAAAATTGTTATCGTGATTGAGAACTGATTC,644 a.u.
CTATACTATCAATTAAACGTGCACTAGGTGCTGTTC,571 a.u.
CTAGATAGAATGCAATACATCATGTAGTTCTGTTTC,483 a.u.
GAACGCACTTTGTAACTGATGGCGAAGAGCAAATAG,513 a.u.
GAAAAACAAGCGTGTCATGTGAGCTTTTTTGCCTAG,2230 a.u.
CTAGCAAAAAGATTTCACGTTGTTCGGGAGGTATTC,582 a.u.
GAAAAGCGACATTACCTCGTGTATTTAGTATTTTAG,561 a.u.
GAACTTTATAGAGAAAATCTGATGCAGCAAGATTAG,547 a.u.
CTATACGACTTGAACATCAGAACGGCGATTTTCTTC,597 a.u.
GAATTGTCTTAGATGATCATTCCATTCTTTAGGTAG,558 a.u.
CTACTATAAAATTTTCACATGCATTATATAGACTTC,641 a.u.
TGTACGAAGCTATTTTTCATGATTATAGTAGTTAGG,528 a.u.
CTACTCAAAGTGTATCACGTCCCCGTCAATTTCTTC,693 a.u.
CCTAACTACTATACAGGTGTAATATAGCTTCGTACA,548 a.u.
GAAACACTGGTTTTGGACGTCACAAGAGCATCTTAG,630 a.u.
CTAAAAAGAGAAAAACACGTGTGGAGAACTTTTTTC,2930 a.u.
GAATTAGTATAAACTCACGTAATTTCAATGAATTAG,521 a.u.
GAAATTTTTTCTTGTTCTCACGTGGAGTATGCGTAG,2710 a.u.
CTAACCCAACTTTACCACCAGGGCACACTTCTTTTC,509 a.u.
CTAAGAAAAGTTGATAACGTCAGGTGGAAAACCTTC,827 a.u.
GAACTGGAGTAAAGTCAGCTGTCCTGTCACCCTTAG,791 a.u.
GAAGTGTAGAATCATCACCATCTTCTGTGATAATAG,527 a.u.
GAATTTGGATGCTCTCATATGATTTTCCCTTCTTAG,501 a.u.

# Series 4
# Target: Sal-like protein 4, full length isoform A (SALL4, Homo sapiens, UniProt Q9UJQ4, residues 1-1053)
# UniProt Q9UJQ4, sequence (whole entry, looked up): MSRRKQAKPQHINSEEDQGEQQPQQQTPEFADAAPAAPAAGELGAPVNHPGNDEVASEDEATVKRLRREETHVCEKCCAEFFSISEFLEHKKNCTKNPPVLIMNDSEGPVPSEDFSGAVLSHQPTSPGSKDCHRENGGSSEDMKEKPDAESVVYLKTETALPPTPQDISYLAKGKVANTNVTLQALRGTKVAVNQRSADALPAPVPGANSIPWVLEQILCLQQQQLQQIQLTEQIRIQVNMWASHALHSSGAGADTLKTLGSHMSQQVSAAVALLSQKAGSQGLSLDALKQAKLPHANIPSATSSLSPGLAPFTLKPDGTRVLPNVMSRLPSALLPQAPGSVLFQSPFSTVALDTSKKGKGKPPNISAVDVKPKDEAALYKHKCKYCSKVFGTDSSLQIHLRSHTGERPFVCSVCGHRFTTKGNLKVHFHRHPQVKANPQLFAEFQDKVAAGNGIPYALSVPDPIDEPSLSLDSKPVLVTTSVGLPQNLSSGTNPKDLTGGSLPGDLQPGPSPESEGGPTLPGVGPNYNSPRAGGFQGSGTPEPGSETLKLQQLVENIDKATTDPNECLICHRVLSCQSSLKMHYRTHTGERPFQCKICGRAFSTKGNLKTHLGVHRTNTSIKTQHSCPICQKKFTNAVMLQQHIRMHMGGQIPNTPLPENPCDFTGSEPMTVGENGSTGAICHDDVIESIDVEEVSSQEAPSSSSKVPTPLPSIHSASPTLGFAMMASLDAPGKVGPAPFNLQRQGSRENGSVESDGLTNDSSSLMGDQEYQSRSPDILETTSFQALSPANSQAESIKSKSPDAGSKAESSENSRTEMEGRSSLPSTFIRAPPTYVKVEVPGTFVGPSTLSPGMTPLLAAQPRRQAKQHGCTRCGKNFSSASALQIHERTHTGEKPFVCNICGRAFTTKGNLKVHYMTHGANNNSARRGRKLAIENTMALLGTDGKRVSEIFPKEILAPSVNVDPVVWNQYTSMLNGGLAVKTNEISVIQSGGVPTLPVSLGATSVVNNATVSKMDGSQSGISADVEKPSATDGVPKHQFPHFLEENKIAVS
# Technique: universal PBM
# Form: double-stranded DNA, one strand shown
# Medium: in vitro
# Concentration: 600 nM
# Setting: 8-mer, flanks averaged, mean of replicates
# Direction: higher = stronger binding
Strand,E-score
GGCCGGTA,-0.232
GCACAAAA,0.119
CTGGCCCA,-0.298
AGGGTGTG,-0.198
CTCATTGA,-0.073
GAGGGCGA,-0.299
ATGTGGCA,-0.157
CATGACGC,-0.0794
ACCATTGC,0.0911
TCACCTCA,-0.0183
ACGCTACT,-0.0112
ATCTGCCA,-0.0937
CTCTCTCC,-0.239
AGTCGTTA,0.11
AAGATAGA,0.087
CATTTGAA,0.147

# Series 5
# Target: CCNB1, cyclin fold, Cln2 fusion (human)
# Technique: yeast growth competition, sequencing
# Medium: yeast
# Setting: weak parent motif
# Relative to: not given
# Direction: higher = stronger binding
# Parent: E2F3 docking peptide (human); PPAKRRLELGESG
Substitution,normalised enrichment score
R6A,0.607
R5A L7A,0.331
L9F,1.8
R5K L9F,1.03
G10A,0.88
E11A,0.882
E8A,0.528
P2A,0.492
G13A,-0.162

# For quick reference, copied from above (series 1):
Strand,log2 enrichment
UGGCCCUGGUGGCCUGCGGGGAGGAAGAGGUGGCCUCAUGGAUCGUGGUGGUCCCGGUGGAAUGUUCAGAGGUGGCCGUGGUGGAGACAG,0.135
CAAGUCCUGUGCUACACAUCGUAUGUACCGAAUCGGGAAAAAGGGAGGGAAAGGGAAAGUAUUAUGUUACGCCGUUCGGAUCUGCACUUC,0.643
AAGUCCUGUGCUACACAUCGUAUGUACCGAAUCGGGUUUUUGGGUUUUUGGGAGGGAAAGUAUUAUGUUACGCCGUUCGGAUCUGCACUU,-0.0552
UUAAAACAUGGCAACUUGUAAUUGUUUUCUUUCUUAGGAACAUCAUUCAUGGCAGUGAUUCAGUAAAAAGUGCUGAAAAAGAAAUCAGCC,0.5
UGGCCCUGGUGGCAUGCGGGGAGGAUGAGGUGGCCUCAUGGAUCGUGGUGGUCCCGGUGGAAUGUUCAGAGGUGGCCGUGGUGGAGACAG,0.245
GCAGGAAGUAAAAACAAAUGGAAAUGCUUCGGAUAGUGGCAGCGGUGGGGGUUGCUAAGGAAAGGGUGGGAUGGGAGUGGGUAAAGAGUU,1.05
CCUGUGCUACACAUCGUAUGUACCGAAUCGGGGAAAAAAAGGGGAAAGGGGAAAAAGGGGAAAGUAUUAUGUUACGCCGUUCGGAUCUGC,0.142
CAAGUCCUGUGCUACACAUCGUAUGUACCGAAUCGGGAAAGGGGAAAGGGGAAAGGAAAGUAUUAUGUUACGCCGUUCGGAUCUGCACUU,-0.153
CCUCAAGUCCUGUGCUACACAUCGUAUGUACCGAAUCGGAAGGAAGGAAGGGGAAAGUAUUAUGUUACGCCGUUCGGAUCUGCACUUCCA,-0.331
